Measurements of several laboratories.
A part holds a random share of what one study measured.

Sample 1
Target: RING finger protein unkempt homolog, zinc fingers 1-6, GST-SBP tag (UNK, Homo sapiens, UniProt Q9C0B0, residues 30-357)
Method: RNA Bind-n-Seq
Form: RNA
Sample: in vitro
Concentration: not given
Notes: RNA with constant flanks, ends assumed
Reference: input RNA pool
Reading: higher = stronger binding
Quantity: bound/input enrichment
Constant ends, left off below: GGGAGUUCUACAGUCCGACGAUC … CAACAGAGGAUUGAGCAUCA
Target sequence (chain): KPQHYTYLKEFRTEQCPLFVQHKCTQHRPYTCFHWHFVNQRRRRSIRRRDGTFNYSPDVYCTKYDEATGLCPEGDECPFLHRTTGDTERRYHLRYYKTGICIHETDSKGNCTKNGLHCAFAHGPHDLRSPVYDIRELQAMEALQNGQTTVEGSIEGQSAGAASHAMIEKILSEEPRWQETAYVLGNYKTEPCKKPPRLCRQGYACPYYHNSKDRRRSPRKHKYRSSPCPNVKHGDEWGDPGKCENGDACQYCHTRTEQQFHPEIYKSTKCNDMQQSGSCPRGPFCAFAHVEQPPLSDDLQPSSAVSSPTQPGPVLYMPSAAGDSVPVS
GGCCUGGGACCGUCCUGGGCUAGUACAAAUAGCGGCAGUGGAGGCUCGAGAGGAAAGUUUGUCCGUGGAGGCAGUGGUAGAGGCCGUCAUGUACGGUCCUUUACUCGAUAGAUGUGUUCU: 0.303 ratio
AUUUUCUUACUGGCUAGAGUUCUUGGUGGAGAAGUUGCAUAUGGCCAAGUUCUUGGAGUUACCGGAUAUUCAUUACUUCCUCUCAUUGUAAUAGCCCCUAUACUUUUGGUGGUUGGAUCU: 0.285 ratio
AAAACCUGGUAUGGAGUCCCAGGGUAUGCUGCUGAGCAGCUAGAAAAUGUAAUGAAGAAACCCGCUCCAGAACUCUUUGUGUCCCAGCCGGAUCUCCUCCAUCAGCUUGUGACCAUCAUG: 0.508 ratio
GGUAACCAGAGAAAAGUUCCUUUCUGAAUGGAGAGCUCUCCUCACUGCUCCAGCACCAUACUCCGAACCCUCACUCUCUUUCAAAAGAAUGGCAGUUGAGAUUCACUGGCCCUCAGGGGA: 0.0866 ratio
UUACGUUUAAGACCUAGCCUUUGAUGUGGUAUUUAUGUAACGUUUGUACAGUGAUUUACUCUCCGUUUGUUACCUUUAUCACCUGUACAAUUGCACUAUUUAAAUGUACUCCUUCUUAAU: 0.501 ratio
CUCAAGAAAACAUCUUCAAGUGACUAUUCAAUUUUCGACAACUAUUAUAUUCCAGAAAUAACCCGUGUUUUACUACUUCGAUCCUGUAAGACUUUAACCCAUGAGAUCGGACACAUAUUU: 0.644 ratio
AUAAGUUAUAAUUUCUGUUCACUUUGUAUUUGUUCAGUAUGCAAAGUGUGUCACCCUUUCCCGCUGAAUUCAAUUCCCACGUAGACUCUUAUUUUAUAGGACGAAUGCCAAAUUGCAGCU: 9.25 ratio
CUCUUCCUCCCCACCCUGAAAAAAAUGAGUUCCUAUUUUUUCUGGGAGAGGGGGGGAUUGAUCCGAAAAAAAUGUAGUGUGUUCCAUUUAAAAUUUUGGCAUAUGGCAUUUUCUAACUUA: 0.201 ratio
AGUAGAGAGAUAACAAAAGCUGCUCAGAGUCUCAAUGAACUUGAUUAUCUUUCUCAAGGAACCGAUCUUUCUGGAAUAGAAGUAAUAGAGAAUGAUCUACUCUUUAUUGCAAGAGCUCGA: 0.178 ratio
CUGUAUCUUUCUGCUAUUCGAAAGAUCCCAGCCUUGACUGAAAAUGAUCCUGAAACUUGGACCGUUUGUAAUUUUUCUGUGGAUCAUGAUAGUGCUCCUCUGAACAAUCGAUGUGUCCGU: 0.113 ratio
GAUUAUCUUCGUUCAAAUGGCUAUGAAGAGGCAUAUUCAGUUUUUAAAAAGGAAGCUGAAUCCGAUGUGAAUGAAGAAUUAGAUAAAAAGUAUGCUGGUCUUUUGGAAAAAAAAUGGACA: 1.59 ratio

Sample 2
Target: Sal-like protein 4, full length isoform A (SALL4, Homo sapiens, UniProt Q9UJQ4, residues 1-1053)
UniProt Q9UJQ4, sequence (whole entry, looked up): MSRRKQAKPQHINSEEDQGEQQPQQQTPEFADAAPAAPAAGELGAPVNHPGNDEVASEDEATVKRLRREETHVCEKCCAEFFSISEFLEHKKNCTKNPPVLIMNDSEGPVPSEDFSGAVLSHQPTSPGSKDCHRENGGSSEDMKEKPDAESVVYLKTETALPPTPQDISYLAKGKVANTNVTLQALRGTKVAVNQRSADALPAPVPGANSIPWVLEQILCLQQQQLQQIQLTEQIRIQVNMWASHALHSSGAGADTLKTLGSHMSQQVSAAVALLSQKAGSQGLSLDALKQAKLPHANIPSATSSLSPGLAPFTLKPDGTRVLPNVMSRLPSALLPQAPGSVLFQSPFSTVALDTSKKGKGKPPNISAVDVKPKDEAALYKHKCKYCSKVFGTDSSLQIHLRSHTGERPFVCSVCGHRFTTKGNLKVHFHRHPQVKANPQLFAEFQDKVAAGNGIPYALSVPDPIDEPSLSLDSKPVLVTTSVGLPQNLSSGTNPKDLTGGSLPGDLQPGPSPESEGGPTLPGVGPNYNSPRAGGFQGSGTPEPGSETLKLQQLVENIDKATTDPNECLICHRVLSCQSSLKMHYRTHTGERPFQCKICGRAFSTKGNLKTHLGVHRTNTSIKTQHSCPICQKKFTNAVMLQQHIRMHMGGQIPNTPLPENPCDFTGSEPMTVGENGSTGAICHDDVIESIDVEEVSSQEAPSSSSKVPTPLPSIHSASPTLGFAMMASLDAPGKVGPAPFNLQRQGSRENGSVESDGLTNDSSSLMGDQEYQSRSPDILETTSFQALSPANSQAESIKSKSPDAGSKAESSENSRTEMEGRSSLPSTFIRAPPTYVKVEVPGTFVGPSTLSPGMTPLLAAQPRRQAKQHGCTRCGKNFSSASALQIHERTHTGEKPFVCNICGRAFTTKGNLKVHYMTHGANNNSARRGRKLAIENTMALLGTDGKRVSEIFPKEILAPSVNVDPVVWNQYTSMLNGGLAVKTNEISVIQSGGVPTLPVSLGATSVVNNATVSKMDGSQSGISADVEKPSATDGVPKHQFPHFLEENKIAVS
Method: universal PBM
Form: double-stranded DNA, one strand shown
Sample: in vitro
Concentration: 600 nM
Notes: 8-mer, flanks averaged, mean of replicates
Reading: higher = stronger binding
Quantity: E-score
TAACCCCA: -0.142
CGTGCGCA: -0.225
ACCCAAAG: -0.0768
AAGAGGCT: -0.0449
CCATGTTC: -0.0827
ACGCGAGT: -0.138
AGAACTGA: 0.0482
ACGTAAAC: -0.0217
CGACCGCA: -0.0878
CAGTCGAA: -0.169
CCGGATCC: -0.288
AAATACCA: 0.242
CTTGCGAC: -0.183
ACTGTAAT: 0.254
GATACCGC: 0.00323
AGCGACTC: -0.286
ATGCACTG: 0.0545
CAGTGCCG: -0.275
CATGCACA: 0.0599
TCACCGCA: -0.109
TAGTGGAA: 0.00105
AGCATGCG: -0.0277
AAACGCAG: 0.0153

Sample 3
Target: Prothrombin, mature alpha-thrombin (F2, Homo sapiens, UniProt P00734)
Method: aptamer microarray, sandwich
Form: DNA with 2'F-ANA
Sample: in vitro
Concentration: 200 nM
Notes: whole 15-mer aptamer, many near background
Together with: Cy3 exosite-II aptamer, 400 nM
Reading: higher = stronger binding
Quantity: mean fluorescence intensity
Sequence: GGTTGGTGTGGTTGG
2'F-ANA at 1 6 7 8 9 10 12 13: 66.8 a.u.
2'F-ANA at 4 6 7 9 10 15: 103 a.u.
2'F-ANA at 4 6 7 14: 91.9 a.u.
2'F-ANA at 1 4 5 6 10 12 13 14 15: 47.6 a.u.
2'F-ANA at 2 3 5 7 8 9 10 11 13 14: 50.8 a.u.
2'F-ANA at 4 5 7 9 13 14 15: 47.7 a.u.
2'F-ANA at 1 3 4 9 10 13 14 15: 58.2 a.u.
2'F-ANA at 6 7 8 13 14: 192 a.u.
2'F-ANA at 1 2 6 7 11 12 13 15: 191 a.u.
2'F-ANA at 3 4 5 6 7 10 12 13 15: 49.7 a.u.
2'F-ANA at 1 3 4 7 9 13 14: 59.9 a.u.
2'F-ANA at 3 4 8 12 13 14: 437 a.u.
2'F-ANA at 1 2 6 7 8 9 12 13: 265 a.u.
2'F-ANA at 5 6 7 8 9 10 12 13 14 15: 47.3 a.u.
2'F-ANA at 4 5 6 7 8 9 10: 46.8 a.u.
2'F-ANA at 3 6 7 8 10 11 13 14 15: 373 a.u.
2'F-ANA at 1 2 3 5 6 7 10 13: 48.1 a.u.
2'F-ANA at 1 3 5 6 7 8 9 15: 74.1 a.u.
2'F-ANA at 6 7 8 9 14 15: 174 a.u.
2'F-ANA at 4 8 10 14 15: 63.7 a.u.
2'F-ANA at 3 4 7 13 14 15: 404 a.u.
2'F-ANA at 5 6 7 8 10 13 14: 44.1 a.u.
2'F-ANA at 1 2 3 5 7 8 9 10 14: 48.5 a.u.
2'F-ANA at 1 2 3 5 9 11 14: 46.1 a.u.
2'F-ANA at 1 4 5 6 8 10 13: 52.2 a.u.

Sample 4
Target: RNA binding protein fox-1 homolog 2, RRM domain, GST-SBP tag (RBFOX2, Homo sapiens, UniProt O43251-10, residues 100-194)
Method: RNA Bind-n-Seq
Form: RNA
Sample: in vitro
Concentration: 365 nM
Notes: natural RNA segment, single round, ends assumed
Reference: no-protein control
Reading: higher = stronger binding
Quantity: RBNS enrichment (R)
Constant ends, left off below: GGGAGUUCUACAGUCCGACGAUC … UGGAAUUCUCGGGUGCCAA
Residues (chain): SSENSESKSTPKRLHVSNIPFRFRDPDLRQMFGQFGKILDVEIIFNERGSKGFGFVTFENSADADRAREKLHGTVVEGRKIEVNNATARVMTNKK
UAUUUUGCGAAACAAAACAAAACAAAAAAAAAAGCUUGGAACUCCAUCACGUGGAAAAACUAGAUCCUGUUGGUUAUAGCAUUUGUGAGUUCUCCACGUCUGUCUCUCUC: 0.695
UAUGGGAAGUAAUGGGUCGCUCGCCGCCCAGAAGAGUUAACAAAAAACGGCAGCACCUCACGGCUGUCUUUCUAGGAUCCUCCAUUAUUCCUUAGAAGCAAGGACCUGGU: 0.32
AGUUGUUUCUUCCAAAGAACAAAGCCAGGUUAAUGACAUUCAAUUCUAAAUGAUACAUUGGAAUUGUGCCUUUUCUACCACACUGGAUUAAAUAAACUUGUCAAAAUAUG: 0.334
AACAAAGUGAGGUGAACCAAACAGAGCUGCCAUCUUCCACACCAUGUUGGAAAUAAAACACGUCCUAGCUGAACCCUUACUGUCCAGGAGGUUCCGUGUGGAGGUGGCAC: 0.209
GACCAUAAAGCAGACUUUAGUAACUUUCUAUUUCUGUAAGUACUAAAUGUCUGGCAUUUUAAACUUUUGUAGAAUACAUUAUGUUGGACACUGGAAUAAUACUAUUUAUU: 0.685
AGGCCCUCCCGAGAGACCCAGUCACACGUCUCUGCUUUAAGCCUUAGCCAGCUAGUGACGAGUACAACGAGAUAACGCCCAUGUGUUUUGGAACAUUUAUGUAAGAUUGU: 0.357
UUUUGGCCAACUUCUCCCACUUGAAAUGGGUGUAUUUAGCCAAUGCCUGUACCUCCGUUGUAUCUAGGAAGUAACUAACUAGCCUUUGAUUUUACAGGCUCAUAGGUGGA: 0.542
UGCCAUGGCCUGAGCCCCCAGAUGUCACACCUGUCCGCACGCACGGCACAUGGAUGCCCACGCAUGUGCAAAAACAACUCAGGGACCAGGGACAGACCUGCUGCCAAGUG: 5.14
AAUAGGAAAUGGGAUAAAAUAUCAAGAGACAAUGAAAACACUGCCUUGACAUGAGGACCAGCAAGUUUAUUCUUUUCAUUUUCAGUGAUGUUGGGAAUGGACUGGGUUUU: 0.524
CCCUUCCCAGACUUGUGAUCCAUUCCCUGCAGCAAAGGAACACUGGAAGAAAGAUGGAGCUCCUCCACAGAGACAGAAAGAAACCACAGCAAGAAAACAGACCUCAAGUU: 0.564
UUAAUAAUAAUUAUUAUUAUUAUUUUCCUUCCAUGCUCCCAACUCCCUUCUGCUUGUCCCAAAUCCGCCAGUGUUUCUGAAUGUUUGUGUCUGUGGUUGCAGUCUUUCCC: 1.26
CAUCAUUGAAUAAGUCUUAUUCAGUCAUCGGUGAGGUUAAUGCACUAAUCAUGGAUUUUUUGAACAUGUUAUUGCAGUGAUUCUCAAAUUAACUGUAUUGGUGUAAGAGU: 0.305

Some of these lines once more (sample 4):
AGUUGUUUCUUCCAAAGAACAAAGCCAGGUUAAUGACAUUCAAUUCUAAAUGAUACAUUGGAAUUGUGCCUUUUCUACCACACUGGAUUAAAUAAACUUGUCAAAAUAUG: 0.334
GACCAUAAAGCAGACUUUAGUAACUUUCUAUUUCUGUAAGUACUAAAUGUCUGGCAUUUUAAACUUUUGUAGAAUACAUUAUGUUGGACACUGGAAUAAUACUAUUUAUU: 0.685
UAUUUUGCGAAACAAAACAAAACAAAAAAAAAAGCUUGGAACUCCAUCACGUGGAAAAACUAGAUCCUGUUGGUUAUAGCAUUUGUGAGUUCUCCACGUCUGUCUCUCUC: 0.695
AGGCCCUCCCGAGAGACCCAGUCACACGUCUCUGCUUUAAGCCUUAGCCAGCUAGUGACGAGUACAACGAGAUAACGCCCAUGUGUUUUGGAACAUUUAUGUAAGAUUGU: 0.357
CCCUUCCCAGACUUGUGAUCCAUUCCCUGCAGCAAAGGAACACUGGAAGAAAGAUGGAGCUCCUCCACAGAGACAGAAAGAAACCACAGCAAGAAAACAGACCUCAAGUU: 0.564
UAUGGGAAGUAAUGGGUCGCUCGCCGCCCAGAAGAGUUAACAAAAAACGGCAGCACCUCACGGCUGUCUUUCUAGGAUCCUCCAUUAUUCCUUAGAAGCAAGGACCUGGU: 0.32
CAUCAUUGAAUAAGUCUUAUUCAGUCAUCGGUGAGGUUAAUGCACUAAUCAUGGAUUUUUUGAACAUGUUAUUGCAGUGAUUCUCAAAUUAACUGUAUUGGUGUAAGAGU: 0.305
UUAAUAAUAAUUAUUAUUAUUAUUUUCCUUCCAUGCUCCCAACUCCCUUCUGCUUGUCCCAAAUCCGCCAGUGUUUCUGAAUGUUUGUGUCUGUGGUUGCAGUCUUUCCC: 1.26
AACAAAGUGAGGUGAACCAAACAGAGCUGCCAUCUUCCACACCAUGUUGGAAAUAAAACACGUCCUAGCUGAACCCUUACUGUCCAGGAGGUUCCGUGUGGAGGUGGCAC: 0.209
